# Published values of several laboratories.
# Every numbered part comes from another study and shows a few of its results, in no order. Substitutions count along the parent as printed.
# Sequence of UniProt Q6ZWH5 (whole entry, looked up): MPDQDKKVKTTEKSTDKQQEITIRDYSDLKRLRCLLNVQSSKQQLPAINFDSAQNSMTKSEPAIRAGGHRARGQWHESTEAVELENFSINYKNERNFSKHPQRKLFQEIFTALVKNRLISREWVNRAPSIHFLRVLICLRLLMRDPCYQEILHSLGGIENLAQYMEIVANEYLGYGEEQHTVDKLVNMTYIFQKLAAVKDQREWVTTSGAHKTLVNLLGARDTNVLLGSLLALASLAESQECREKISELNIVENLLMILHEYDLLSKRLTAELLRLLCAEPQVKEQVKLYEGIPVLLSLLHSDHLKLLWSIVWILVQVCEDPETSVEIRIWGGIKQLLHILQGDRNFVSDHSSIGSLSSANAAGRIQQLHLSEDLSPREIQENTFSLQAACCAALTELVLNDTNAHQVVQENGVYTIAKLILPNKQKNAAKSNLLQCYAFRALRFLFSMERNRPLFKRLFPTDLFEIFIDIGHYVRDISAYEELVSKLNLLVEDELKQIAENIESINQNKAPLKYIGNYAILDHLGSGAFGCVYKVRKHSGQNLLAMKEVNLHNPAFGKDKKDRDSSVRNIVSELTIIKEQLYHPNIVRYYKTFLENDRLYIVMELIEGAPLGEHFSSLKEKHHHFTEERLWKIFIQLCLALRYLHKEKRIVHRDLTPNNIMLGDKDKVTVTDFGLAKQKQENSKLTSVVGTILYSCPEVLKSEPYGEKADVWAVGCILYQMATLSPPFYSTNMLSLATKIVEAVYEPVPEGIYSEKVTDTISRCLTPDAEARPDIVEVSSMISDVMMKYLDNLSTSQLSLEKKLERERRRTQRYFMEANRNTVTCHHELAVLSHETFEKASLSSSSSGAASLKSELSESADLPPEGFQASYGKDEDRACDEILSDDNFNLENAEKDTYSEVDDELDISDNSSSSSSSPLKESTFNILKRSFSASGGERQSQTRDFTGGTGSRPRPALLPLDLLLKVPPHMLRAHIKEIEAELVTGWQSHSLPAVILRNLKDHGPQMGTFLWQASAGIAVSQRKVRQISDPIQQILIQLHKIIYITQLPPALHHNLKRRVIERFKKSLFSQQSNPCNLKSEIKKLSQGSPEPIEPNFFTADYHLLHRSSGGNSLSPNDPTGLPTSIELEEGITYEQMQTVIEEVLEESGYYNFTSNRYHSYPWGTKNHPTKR
# Sequence of UniProt Q9NRH2 (whole entry, looked up): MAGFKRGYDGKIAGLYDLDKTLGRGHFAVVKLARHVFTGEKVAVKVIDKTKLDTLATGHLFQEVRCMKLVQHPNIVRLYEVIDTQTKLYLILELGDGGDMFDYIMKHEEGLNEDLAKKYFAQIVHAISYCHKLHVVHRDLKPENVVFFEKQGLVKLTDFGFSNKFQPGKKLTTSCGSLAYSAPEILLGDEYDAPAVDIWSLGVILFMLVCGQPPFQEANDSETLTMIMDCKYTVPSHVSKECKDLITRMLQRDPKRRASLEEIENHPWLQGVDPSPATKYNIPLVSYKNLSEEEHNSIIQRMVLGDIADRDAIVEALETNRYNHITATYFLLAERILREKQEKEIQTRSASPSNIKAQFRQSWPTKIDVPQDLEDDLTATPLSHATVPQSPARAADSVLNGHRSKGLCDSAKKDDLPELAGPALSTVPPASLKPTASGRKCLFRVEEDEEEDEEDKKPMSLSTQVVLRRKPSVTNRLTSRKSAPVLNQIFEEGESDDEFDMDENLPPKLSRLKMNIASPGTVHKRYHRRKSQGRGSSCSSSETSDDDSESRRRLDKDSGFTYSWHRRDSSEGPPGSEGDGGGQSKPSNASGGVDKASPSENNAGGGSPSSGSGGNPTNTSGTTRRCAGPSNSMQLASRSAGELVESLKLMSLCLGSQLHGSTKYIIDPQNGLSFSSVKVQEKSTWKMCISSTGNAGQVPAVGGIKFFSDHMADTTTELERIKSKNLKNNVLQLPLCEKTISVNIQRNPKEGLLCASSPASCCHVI
# Sequence of UniProt Q86Z02 (whole entry, looked up): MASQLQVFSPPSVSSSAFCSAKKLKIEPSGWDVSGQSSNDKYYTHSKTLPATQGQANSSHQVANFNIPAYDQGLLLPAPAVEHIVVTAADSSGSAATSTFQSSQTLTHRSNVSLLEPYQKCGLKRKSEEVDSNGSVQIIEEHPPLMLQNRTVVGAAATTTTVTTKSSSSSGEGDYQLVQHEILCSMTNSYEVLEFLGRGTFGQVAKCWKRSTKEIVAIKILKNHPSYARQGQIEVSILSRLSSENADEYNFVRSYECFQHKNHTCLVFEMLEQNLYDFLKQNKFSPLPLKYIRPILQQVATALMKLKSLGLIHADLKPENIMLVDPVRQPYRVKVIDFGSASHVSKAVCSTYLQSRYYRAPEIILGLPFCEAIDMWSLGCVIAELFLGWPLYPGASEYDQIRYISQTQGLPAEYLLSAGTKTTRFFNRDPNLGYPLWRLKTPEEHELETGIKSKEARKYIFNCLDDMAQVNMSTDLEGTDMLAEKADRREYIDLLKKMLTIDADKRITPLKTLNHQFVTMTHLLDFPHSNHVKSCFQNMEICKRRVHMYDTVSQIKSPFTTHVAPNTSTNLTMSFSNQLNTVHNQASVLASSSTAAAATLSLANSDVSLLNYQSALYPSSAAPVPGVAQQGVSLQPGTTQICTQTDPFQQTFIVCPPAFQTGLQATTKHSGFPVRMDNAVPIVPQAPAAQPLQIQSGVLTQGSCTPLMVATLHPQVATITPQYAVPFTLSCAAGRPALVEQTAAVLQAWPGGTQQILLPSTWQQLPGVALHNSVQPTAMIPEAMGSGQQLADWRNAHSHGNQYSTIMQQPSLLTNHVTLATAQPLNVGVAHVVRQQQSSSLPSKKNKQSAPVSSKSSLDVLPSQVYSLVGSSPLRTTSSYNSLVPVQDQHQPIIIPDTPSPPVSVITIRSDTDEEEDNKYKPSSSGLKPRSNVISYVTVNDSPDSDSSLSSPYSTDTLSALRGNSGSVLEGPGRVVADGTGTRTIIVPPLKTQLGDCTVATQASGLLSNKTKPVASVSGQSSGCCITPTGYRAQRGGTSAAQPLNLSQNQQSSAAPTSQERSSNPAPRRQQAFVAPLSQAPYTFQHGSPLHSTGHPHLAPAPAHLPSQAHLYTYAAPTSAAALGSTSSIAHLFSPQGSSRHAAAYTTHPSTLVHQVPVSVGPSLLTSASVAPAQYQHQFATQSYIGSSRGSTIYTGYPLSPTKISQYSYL
# Sequence of UniProt P49759 (whole entry, looked up): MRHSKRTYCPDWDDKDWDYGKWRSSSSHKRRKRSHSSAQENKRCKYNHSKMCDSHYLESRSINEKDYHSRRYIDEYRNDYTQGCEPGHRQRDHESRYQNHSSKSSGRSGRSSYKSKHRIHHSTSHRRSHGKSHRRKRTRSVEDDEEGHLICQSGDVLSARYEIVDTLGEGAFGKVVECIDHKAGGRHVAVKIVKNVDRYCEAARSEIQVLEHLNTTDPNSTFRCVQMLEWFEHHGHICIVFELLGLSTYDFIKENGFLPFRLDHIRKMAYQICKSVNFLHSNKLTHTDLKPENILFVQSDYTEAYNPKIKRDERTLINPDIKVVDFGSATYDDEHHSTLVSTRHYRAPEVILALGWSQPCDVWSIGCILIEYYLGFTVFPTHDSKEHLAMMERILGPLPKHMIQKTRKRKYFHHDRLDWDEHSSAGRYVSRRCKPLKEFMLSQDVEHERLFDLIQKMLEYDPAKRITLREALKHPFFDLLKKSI
# Sequence of UniProt P22455 (whole entry, looked up): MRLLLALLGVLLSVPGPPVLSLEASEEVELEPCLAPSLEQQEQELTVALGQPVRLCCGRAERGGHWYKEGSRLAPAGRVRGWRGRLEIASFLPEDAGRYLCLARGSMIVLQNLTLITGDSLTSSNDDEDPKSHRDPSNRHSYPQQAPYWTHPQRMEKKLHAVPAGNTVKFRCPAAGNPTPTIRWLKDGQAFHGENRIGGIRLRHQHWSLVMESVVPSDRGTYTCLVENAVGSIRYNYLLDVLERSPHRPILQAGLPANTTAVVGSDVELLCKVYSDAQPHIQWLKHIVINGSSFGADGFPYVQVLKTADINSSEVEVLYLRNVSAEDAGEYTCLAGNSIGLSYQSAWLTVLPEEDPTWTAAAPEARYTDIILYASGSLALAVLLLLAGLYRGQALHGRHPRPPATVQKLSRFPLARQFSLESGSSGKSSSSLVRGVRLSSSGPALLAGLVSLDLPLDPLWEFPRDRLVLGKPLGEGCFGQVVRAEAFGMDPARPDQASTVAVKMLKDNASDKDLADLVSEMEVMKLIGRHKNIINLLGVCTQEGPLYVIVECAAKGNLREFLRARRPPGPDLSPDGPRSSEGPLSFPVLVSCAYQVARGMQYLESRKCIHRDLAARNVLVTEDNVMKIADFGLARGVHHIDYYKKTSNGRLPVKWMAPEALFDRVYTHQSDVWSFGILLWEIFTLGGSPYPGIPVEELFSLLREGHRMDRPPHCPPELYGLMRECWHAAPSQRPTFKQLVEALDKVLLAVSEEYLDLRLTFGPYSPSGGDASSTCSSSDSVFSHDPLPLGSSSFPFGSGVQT
# Sequence of UniProt Q9H3Y6 (whole entry, looked up): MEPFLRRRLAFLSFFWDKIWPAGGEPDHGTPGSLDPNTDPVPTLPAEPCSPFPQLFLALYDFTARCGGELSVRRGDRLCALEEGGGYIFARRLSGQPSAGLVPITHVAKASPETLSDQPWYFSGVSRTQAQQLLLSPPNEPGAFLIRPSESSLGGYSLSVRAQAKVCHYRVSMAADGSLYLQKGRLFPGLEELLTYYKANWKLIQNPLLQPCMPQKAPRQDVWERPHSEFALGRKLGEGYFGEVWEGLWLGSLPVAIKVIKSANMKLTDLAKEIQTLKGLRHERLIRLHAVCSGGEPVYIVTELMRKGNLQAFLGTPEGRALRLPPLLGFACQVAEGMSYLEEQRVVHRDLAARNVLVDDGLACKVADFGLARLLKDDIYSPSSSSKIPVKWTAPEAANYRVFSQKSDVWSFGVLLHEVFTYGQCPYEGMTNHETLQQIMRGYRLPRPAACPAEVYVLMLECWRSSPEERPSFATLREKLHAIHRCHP

# Block 1 — effect on: cell-free assay; method: competition with immobilised ligand; concentration: 1 µM
# Compound: NS(=O)(=O)c1cc(NC(=O)Cc2ccccc2)ccc1Oc1cccc(Cl)c1
target,remaining binding
"CDKL1 (Homo sapiens, UniProt Q00532)",98%
"NTRK2 (Homo sapiens, UniProt Q16620)",66%
"MAP3K14 (Homo sapiens, UniProt Q99558)",67%
"NEK10 (Homo sapiens, UniProt Q6ZWH5)",89%
"HIPK1 (Homo sapiens, UniProt Q86Z02)",80%
"CSNK1A1 (Homo sapiens, UniProt P48729)",93%
"AKT1 (Homo sapiens, UniProt P31749)",100%
"CLK1 (Homo sapiens, UniProt P49759)",67%
"SNRK (Homo sapiens, UniProt Q9NRH2)",100%
"KIT (Homo sapiens, UniProt P10721, T670I/V559D)",83%
"FGFR4 (Homo sapiens, UniProt P22455)",95%
"ROCK1 (Homo sapiens, UniProt Q13464)",88%
"SRMS (Homo sapiens, UniProt Q9H3Y6)",78%

# Block 2 — effect on: enzyme activity; action: inhibitor; concentration: 0.5 µM; baseline: control
# Target: cAMP-dependent protein kinase catalytic subunit alpha (PRKACA, Homo sapiens, UniProt P17612)
SMILES,remaining activity
O=C1NC(=O)C(c2cn(CCCn3ccnc3)c3ccccc23)=C1Nc1ccccc1,94%
COc1cc2nccc(Oc3ccc(NC(=S)NC(=O)c4ccccc4C)cc3)c2cc1OC,91.8%
Nc1[nH]nc2nc3ccccc3nc12,102%
COc1ccc(C(=O)Nc2sc3c(c2C(N)=O)CCCC3)cc1OC,102%
O=C(CCCc1ccc(-c2ccccc2F)cc1)Nc1ccc(O)cc1,99.5%
CC(C)[C@H](CO)Nc1nc(Nc2cc(N)cc(Cl)c2)c2ncn(C(C)C)c2n1,101%
Cc1ccc(Nc2nccc(N(C)c3ccc4c(C)n(C)nc4c3)n2)cc1S(N)(=O)=O,94.5%
Cc1nc(-c2ccccc2)c(-c2ccncc2)o1,98.9%
Cn1c2ccccc2c2c3c(c4c5ccccc5n(CCC#N)c4c21)CNC3=O,83.7%
O=c1c2ccccc2[nH]c(=S)n1CCN1CCC(=C(c2ccc(F)cc2)c2ccc(F)cc2)CC1,101%
Nc1ccc2ncnc(NCCc3ccc(Oc4ccccc4)cc3)c2c1,88.6%
COc1ccc(OC)c2c(=S)c3ccccc3[nH]c12,97.5%
Cn1sc(=O)n(Cc2ccccc2)c1=O,105%
CNC(=O)c1cc(Oc2ccc(NC(=O)Nc3ccc(Cl)c(C(F)(F)F)c3)cc2)ccn1,92.6%

# Block 3 — Substitution: L20Q; method: DHFR PCA, deep sequencing; matrix: yeast; baseline: wild-type fitted maximum; direction: higher = stronger binding
# Target: ABI1, truncated, D143A, DHFR fusion (Arabidopsis thaliana)
# Notes: methotrexate growth selection, single substitutions
# Starting sequence: PYL1, truncated, DHFR fusion (Arabidopsis thaliana); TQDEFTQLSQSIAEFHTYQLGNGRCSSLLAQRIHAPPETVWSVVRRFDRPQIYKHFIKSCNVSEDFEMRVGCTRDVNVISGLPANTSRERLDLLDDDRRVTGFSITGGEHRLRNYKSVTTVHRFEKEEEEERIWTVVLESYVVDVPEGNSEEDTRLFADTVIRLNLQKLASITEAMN; partner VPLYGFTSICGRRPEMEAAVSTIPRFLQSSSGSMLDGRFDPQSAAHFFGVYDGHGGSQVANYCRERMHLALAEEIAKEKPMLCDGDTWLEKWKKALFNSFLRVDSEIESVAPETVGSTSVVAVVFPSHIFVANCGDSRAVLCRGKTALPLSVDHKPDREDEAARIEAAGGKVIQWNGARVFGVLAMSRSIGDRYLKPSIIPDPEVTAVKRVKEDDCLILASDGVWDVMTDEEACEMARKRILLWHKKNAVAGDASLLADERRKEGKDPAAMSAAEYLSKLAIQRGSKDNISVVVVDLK
conditions,relative binding score
added: (+)-ABA 0.0091 µM,35.7%
added: (+)-ABA 0.032 µM,33.6%
added: (+)-ABA 17 µM,88.1%
added: (+)-ABA 2500 µM,96.6%
added: (+)-ABA 0.39 µM,51.2%
added: (+)-ABA 4.8 µM,80.9%

# Other studies, line by line
Molecule,target,test,system,conditions,scale,quantity,result
"PhoQ, residues 284 288 289 292 302 303 TASMAF","PhoP, residues 12 14 15 18 19 HLGGL (Escherichia coli, UniProt P23836)","Sort-seq, refers to: YFP reporter",E. coli,"PhoQ-PhoP variant library, added: 10 µM Mg2+","baseline: high Mg2+ state, higher = stronger signaling",fold induction,19.7
